Experimental data from different studies.
Lines come from different studies, so protocols differ. Several values in a cell are separate wells, animals, samples, runs or records. Numbers after ± are the reported error.
Kir3.1/Kir3.2: Kir3.1/Kir3.2 (Homo sapiens, UniProt P48051+P48549)
Chain of UniProt P48051 (whole entry, looked up): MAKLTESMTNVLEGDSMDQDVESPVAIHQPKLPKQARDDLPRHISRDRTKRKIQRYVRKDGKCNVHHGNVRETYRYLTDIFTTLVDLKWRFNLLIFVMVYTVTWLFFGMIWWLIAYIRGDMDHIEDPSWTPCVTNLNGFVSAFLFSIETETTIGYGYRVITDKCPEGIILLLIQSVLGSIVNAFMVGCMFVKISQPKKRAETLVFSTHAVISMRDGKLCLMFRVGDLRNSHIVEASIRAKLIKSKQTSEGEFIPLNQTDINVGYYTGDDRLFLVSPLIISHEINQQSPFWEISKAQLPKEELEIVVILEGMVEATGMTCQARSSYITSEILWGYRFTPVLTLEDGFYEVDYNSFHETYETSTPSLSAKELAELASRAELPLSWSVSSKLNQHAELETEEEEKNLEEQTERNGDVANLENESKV
Chain of UniProt P48549 (whole entry, looked up): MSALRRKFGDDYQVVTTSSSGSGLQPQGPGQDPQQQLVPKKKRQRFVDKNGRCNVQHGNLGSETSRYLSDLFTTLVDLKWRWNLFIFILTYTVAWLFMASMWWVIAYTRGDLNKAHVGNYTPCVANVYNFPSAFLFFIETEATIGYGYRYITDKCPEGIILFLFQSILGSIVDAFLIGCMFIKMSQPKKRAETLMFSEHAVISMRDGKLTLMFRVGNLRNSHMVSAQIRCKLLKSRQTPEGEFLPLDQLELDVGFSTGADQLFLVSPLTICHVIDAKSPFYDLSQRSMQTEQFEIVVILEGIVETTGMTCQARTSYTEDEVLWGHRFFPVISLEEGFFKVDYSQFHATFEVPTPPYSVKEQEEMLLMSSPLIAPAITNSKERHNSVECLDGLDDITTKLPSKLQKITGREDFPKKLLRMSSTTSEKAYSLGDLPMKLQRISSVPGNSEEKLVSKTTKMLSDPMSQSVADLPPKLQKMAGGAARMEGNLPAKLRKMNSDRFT
PPARG: Peroxisome proliferator-activated receptor gamma (PPARG, Homo sapiens, UniProt P37231)
Chain of UniProt Q9NSD7 (whole entry, unmodified, looked up): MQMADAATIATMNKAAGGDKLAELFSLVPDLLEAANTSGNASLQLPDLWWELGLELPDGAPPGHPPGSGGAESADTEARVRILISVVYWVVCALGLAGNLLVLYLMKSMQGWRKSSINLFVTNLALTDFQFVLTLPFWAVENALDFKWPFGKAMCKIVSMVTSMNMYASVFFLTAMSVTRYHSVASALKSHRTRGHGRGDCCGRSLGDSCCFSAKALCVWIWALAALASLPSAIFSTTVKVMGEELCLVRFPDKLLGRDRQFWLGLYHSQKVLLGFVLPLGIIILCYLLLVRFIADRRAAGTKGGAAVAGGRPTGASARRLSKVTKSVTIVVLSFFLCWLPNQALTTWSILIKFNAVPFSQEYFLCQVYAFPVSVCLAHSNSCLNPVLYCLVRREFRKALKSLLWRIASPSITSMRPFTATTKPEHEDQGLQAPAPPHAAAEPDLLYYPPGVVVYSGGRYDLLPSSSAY
Chain of UniProt P48546 (whole entry, looked up): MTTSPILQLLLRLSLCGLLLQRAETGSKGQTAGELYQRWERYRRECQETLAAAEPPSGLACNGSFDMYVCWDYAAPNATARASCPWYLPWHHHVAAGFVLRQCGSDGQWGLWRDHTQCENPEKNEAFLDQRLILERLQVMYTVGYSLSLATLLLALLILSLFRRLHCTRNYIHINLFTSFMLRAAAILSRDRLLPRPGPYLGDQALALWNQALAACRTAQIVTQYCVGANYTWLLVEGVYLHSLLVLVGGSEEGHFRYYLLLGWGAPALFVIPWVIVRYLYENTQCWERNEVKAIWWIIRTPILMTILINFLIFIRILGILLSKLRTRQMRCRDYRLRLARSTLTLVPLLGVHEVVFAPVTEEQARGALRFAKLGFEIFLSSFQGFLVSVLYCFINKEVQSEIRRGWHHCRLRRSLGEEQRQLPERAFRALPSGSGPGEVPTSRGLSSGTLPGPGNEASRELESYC
Chain of UniProt P32245 (whole entry, looked up): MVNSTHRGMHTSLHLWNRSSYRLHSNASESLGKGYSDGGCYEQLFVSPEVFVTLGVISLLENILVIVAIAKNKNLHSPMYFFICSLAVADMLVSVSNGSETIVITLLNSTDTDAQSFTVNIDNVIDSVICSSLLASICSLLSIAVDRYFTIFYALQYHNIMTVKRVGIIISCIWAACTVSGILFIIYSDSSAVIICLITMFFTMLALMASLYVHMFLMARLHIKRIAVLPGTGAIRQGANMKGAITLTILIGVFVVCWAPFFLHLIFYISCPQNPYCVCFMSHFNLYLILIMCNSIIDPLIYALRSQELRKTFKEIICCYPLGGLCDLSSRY
Chain of UniProt Q8TDS7 (whole entry, unmodified, looked up): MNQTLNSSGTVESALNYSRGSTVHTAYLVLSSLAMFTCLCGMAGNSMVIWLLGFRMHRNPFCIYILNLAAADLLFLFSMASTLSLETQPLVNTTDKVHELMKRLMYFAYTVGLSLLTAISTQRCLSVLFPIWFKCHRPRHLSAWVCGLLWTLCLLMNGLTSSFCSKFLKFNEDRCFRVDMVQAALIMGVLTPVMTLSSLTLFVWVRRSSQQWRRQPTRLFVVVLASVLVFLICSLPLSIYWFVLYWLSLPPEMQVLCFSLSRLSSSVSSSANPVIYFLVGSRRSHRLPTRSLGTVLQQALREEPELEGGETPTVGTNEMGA
Chain of UniProt P34972 (whole entry, looked up): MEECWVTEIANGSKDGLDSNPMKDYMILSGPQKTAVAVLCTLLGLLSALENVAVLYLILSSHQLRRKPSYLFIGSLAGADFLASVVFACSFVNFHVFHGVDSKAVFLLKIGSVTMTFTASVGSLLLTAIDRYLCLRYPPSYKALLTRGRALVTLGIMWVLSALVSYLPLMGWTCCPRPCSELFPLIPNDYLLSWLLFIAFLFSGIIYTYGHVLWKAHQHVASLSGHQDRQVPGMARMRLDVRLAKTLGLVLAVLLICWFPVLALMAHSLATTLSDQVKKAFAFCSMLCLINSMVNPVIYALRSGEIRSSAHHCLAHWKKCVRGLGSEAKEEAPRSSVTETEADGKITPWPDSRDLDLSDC
Chain of UniProt P08173 (whole entry, looked up): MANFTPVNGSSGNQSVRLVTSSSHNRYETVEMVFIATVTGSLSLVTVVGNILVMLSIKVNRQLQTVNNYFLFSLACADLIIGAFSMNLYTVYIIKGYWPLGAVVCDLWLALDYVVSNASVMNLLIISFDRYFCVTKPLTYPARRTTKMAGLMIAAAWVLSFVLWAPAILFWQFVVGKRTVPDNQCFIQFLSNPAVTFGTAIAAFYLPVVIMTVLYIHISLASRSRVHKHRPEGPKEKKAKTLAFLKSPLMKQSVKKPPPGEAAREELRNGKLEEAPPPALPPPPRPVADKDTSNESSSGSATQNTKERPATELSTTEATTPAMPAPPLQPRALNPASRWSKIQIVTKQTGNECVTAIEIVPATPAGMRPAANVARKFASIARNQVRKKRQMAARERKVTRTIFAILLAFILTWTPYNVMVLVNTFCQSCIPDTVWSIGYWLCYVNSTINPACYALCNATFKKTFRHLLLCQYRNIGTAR
Chain of UniProt P46116 (whole entry, looked up): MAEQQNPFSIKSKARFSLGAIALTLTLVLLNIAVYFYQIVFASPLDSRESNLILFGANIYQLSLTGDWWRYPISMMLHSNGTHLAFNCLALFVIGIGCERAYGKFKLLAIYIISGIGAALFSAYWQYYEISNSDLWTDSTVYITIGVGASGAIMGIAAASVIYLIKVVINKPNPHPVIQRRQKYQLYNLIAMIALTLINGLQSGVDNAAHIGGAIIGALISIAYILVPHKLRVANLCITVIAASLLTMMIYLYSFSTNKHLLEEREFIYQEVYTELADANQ

SMILES | target or system | assay | test system | setting | scale | endpoint | result
O=C(COc1ccc(Cl)cc1Cl)Nc1cc(C2CC2)nn1C1CCOCC1 | Kir3.1/Kir3.2 | thallium flux, activator | HEK293 |  | reference: standard compound | Emax | 81%
CCc1cc(O)cc2c(/C=N/NC(=N)NCCc3ccc(Cl)cc3)c[nH]c12 | Relaxin-3 receptor 1 (RXFP3, Homo sapiens, UniProt Q9NSD7, K271A) |  | HEK-293T |  | reference: wild type | Emax | 62.4 ± 5.4%
CCc1cc(NC(=O)COc2ccc(C(F)(F)F)cc2C(F)(F)F)n(C2CCC(F)(F)CC2)n1 | Kir3.1/Kir3.2 | thallium flux, activator | HEK293 |  | reference: standard compound | Emax | 72%
CC[C@H](C)[C@@H]1NC(=O)[C@H](Cc2ccccc2)NC(=O)[C@H](CCC(=O)O)NC(=O)[C@H](CCCNC(=N)N)NC(=O)CNC(=O)[C@@H](NC(=O)[C@H](CC(C)C)NC(=O)[C@H](CCCNC(=N)N)NC(=O)[C@@H](NC(=O)CNC(=O)[C@H](Cc2ccc(O)cc2)NC(=O)[C@@H]2CCCN2C(=O)[C@H](C)NC(=O)[C@H](C)NC(=O)[C@@H](N)CCCNC(=N)N)C(C)C)CSSC[C@@H]2NC(=O)[C@@H](NC(=O)[C@H](CO)NC(=O)[C@H](CO)NC(=O)[C@H](CO)NC(=O)[C@H](CC(C)C)NC(=O)CNC(=O)[C@H](C)NC(=O)[C@H](CC(C)C)NC(=O)[C@@H](NC(=O)[C@@H](N)CC(=O)O)C(C)C)CSSC[C@H](NC(=O)CNC(=O)[C@H](Cc3c[nH]c4ccccc34)NC(=O)[C@H](CCCCN)NC2=O)C(=O)N[C@@H](CO)C(=O)N[C@@H](CCCCN)C(=O)N[C@@H](CO)C(=O)N[C@@H](CCC(=O)O)C(=O)N[C@@H]([C@@H](C)CC)C(=O)N[C@@H](CO)C(=O)N[C@@H](CO)C(=O)N[C@@H](CC(C)C)C(=O)N[C@H](C(=O)O)CSSC[C@@H](C(=O)NCC(=O)NCC(=O)N[C@@H](CO)C(=O)N[C@@H](CCCNC(=N)N)C(=O)N[C@@H](Cc2c[nH]c3ccccc23)C(=O)O)NC(=O)[C@H]([C@@H](C)O)NC(=O)[C@H](Cc2ccccc2)NC(=O)[C@H]([C@@H](C)CC)NC(=O)[C@H](C(C)C)NC(=O)[C@H](C)NC(=O)[C@H](CCCNC(=N)N)NC1=O | Relaxin-3 receptor 1 (RXFP3, Homo sapiens, UniProt Q9NSD7, V375T) |  | HEK-293T |  | reference: wild type | Emax | 66.5 ± 3.7%
CCCCCCCCCCCCCCCC(=O)N[C@@H](CCC(=O)NCCCC[C@H](NC(=O)[C@H](CCC(N)=O)NC(=O)[C@H](Cc1c[nH]cn1)NC(=O)[C@@H](NC(=O)[C@H](CCCCN)NC(=O)[C@H](CC(=O)O)NC(=O)[C@H](CCSC)NC(=O)[C@H](C)NC(=O)[C@@H](NC(=O)[C@H](CO)NC(=O)[C@H](Cc1ccc(O)cc1)NC(=O)[C@H](CC(=O)O)NC(=O)[C@H](CO)NC(=O)[C@@H](NC(=O)[C@H](Cc1ccccc1)NC(=O)[C@@H](NC(=O)CNC(=O)[C@H](CCC(=O)O)NC(=O)[C@H](C)NC(=O)[C@H](Cc1ccc(O)cc1)NCC(F)(F)F)[C@@H](C)O)[C@@H](C)CC)[C@@H](C)CC)[C@@H](C)CC)C(=O)N[C@@H](CC(=O)O)C(=O)N[C@@H](Cc1ccccc1)C(=O)N[C@H](C(=O)N[C@@H](CC(N)=O)C(=O)N[C@@H](Cc1c[nH]c2ccccc12)C(=O)N[C@@H](CC(C)C)C(=O)N[C@@H](CC(C)C)C(=O)N[C@@H](C)C(=O)N[C@@H](CCC(N)=O)C(=O)N[C@@H](CCCCN)C(=O)NCC(=O)N[C@@H](CCCCN)C(=O)N[C@@H](CCCCN)C(=O)N[C@@H](CC(N)=O)C(=O)N[C@@H](CC(=O)O)C(=O)N[C@@H](Cc1c[nH]c2ccccc12)C(=O)N[C@@H](CCCCN)C(=O)N[C@@H](Cc1c[nH]cn1)C(=O)N[C@@H](CC(N)=O)C(=O)N[C@H](C(=O)N[C@H](C(=O)N[C@@H](CCC(N)=O)C(=O)O)[C@@H](C)O)[C@@H](C)CC)C(C)C)C(=O)O | Gastric inhibitory polypeptide receptor (GIPR, Homo sapiens, UniProt P48546) | reporter gene, agonist, luciferase | HEK293 |  |  | Emax | 100%
CSCC[C@H](NC(=O)[C@@H](NC(=O)[C@@H](N)Cc1ccc(O)cc1)C(C)C)C(=O)NCC(=O)N[C@@H](Cc1c[nH]cn1)C(=O)N[C@@H](Cc1ccccc1)C(=O)N[C@@H](CCCNC(=N)N)C(=O)N[C@@H](Cc1c[nH]c2ccccc12)C(=O)N[C@@H](CC(=O)O)C(=O)N[C@@H](CCCNC(=N)N)C(=O)N[C@@H](Cc1ccccc1)C(N)=O | Melanocortin receptor 4 (MC4R, Homo sapiens, UniProt P32245) | cAMP, agonist | CHO-K1 |  |  | Emax | 96%
Cc1c(Cc2cccc(OC(C)C(=O)O)c2)c2ccc(C(=O)NC(C)c3ccc(C(C)C)cc3)cc2n1C (mixture of isomers) | Peroxisome proliferator-activated receptor gamma, ligand-binding domain (PPARG, Homo sapiens, UniProt P37231) | reporter gene, luciferase reporter | HEK293T, Gal4-PPARγ LBD |  |  | IC50 | 790 nM
COC1CN([C@H]2CC[C@H]([C@@]3(C)Oc4c(Cl)cc(C(=O)NCc5c(SC)cc(C)[nH]c5=O)c(C)c4O3)CC2)C1 |  | RNA-seq, item: TLCD2 | human, whole blood | dose not given, 24 h | reference: pretreatment baseline | log2 fold change | 1.12
CC(C)C[C@H](NC(=O)[C@H](Cc1ccc(O)cc1)NC(=O)[C@@H](CCCNC(=N)N)NC(=O)[C@@H](CO)NC(=O)[C@H](Cc1ccccc1)NC(=O)[C@H](CC1CCCCC1)NC(=O)[C@H](CC(=O)O)NC(=O)CN1CCN(CC(=O)O)CCN(CC(=O)O)CCN(CC(=O)O)CC1)C(=O)N[C@@H](Cc1c[nH]c2ccccc12)C(=O)N[C@@H](CO)C(=O)O [copper-64 labelled] |  |  | human, pancreas | concentration not given, 3 h |  | activity concentration | 7240 Bq/mL and 4040 Bq/mL and 7370 Bq/mL and 4950 Bq/mL and 9690 Bq/mL and 4280 Bq/mL
O=C(COc1ccc(C(F)(F)F)cc1C(F)(F)F)Nc1cc(C2CCC2)nn1CC(F)(F)F | Kir3.1/Kir3.2 | thallium flux, activator | HEK293 |  | reference: standard compound | Emax | 35%
O=C1C[C@H](c2nc(-c3ccc(F)c4cn[nH]c34)no2)CCCN1c1ccc(F)cc1 (racemic) | Cannabinoid receptor 2 (CNR2, Homo sapiens, UniProt P34972) | cAMP, agonist, luciferase | CHO |  |  | Emax | 100%
Cc1c(Cc2ccc(OC(C)(C)C(=O)O)cc2)c2ccc(C(=O)N[C@@H](C)c3cccc(C(C)(C)C)c3)cc2n1C | PPARG | ligand displacement, TR-FRET |  |  |  | IC50 | 328 nM
COc1cc(C2C(NC(=O)c3ccc(NC(=O)OC(C)(C)C)cc3)(C(=O)O)C(c3ccc(OC(=O)c4cccs4)c(OC)c3)C2(NC(=O)c2ccc(NC(=O)OC(C)(C)C)cc2)C(=O)O)ccc1OC(=O)c1cccs1 (stereo not drawn) | Glucagon-like peptide 1 receptor (GLP1R, Homo sapiens, UniProt P43220, V194A) | cAMP accumulation, agonist |  | receptor mutant | reference: wild type | Emax | 93.3 ± 4.31%
Cc1cc(NC(=O)COc2ccc(Cl)cc2Cl)n(CC(F)(F)F)n1 | Kir3.1/Kir3.2 | thallium flux, activator | HEK293 |  | reference: standard compound | Emax | 85%
COc1ccc(C2(C(=O)N3CCC(Nc4nc5ccccc5c(=O)[nH]4)CC3)CC2)cc1 | MRGPRD (Homo sapiens, UniProt Q8TDS7, Y245A) | miniGq recruitment, agonist, BRET | HEK293T | Y245A mutant | reference: wild type | Emax | 45.1 ± 6.92%
C=CCn1c(=O)c2ccccc2n2c(SCC(=O)NCc3ccc(NC(C)=O)cc3)nnc12 | Muscarinic acetylcholine receptor M4 (CHRM4, Homo sapiens, UniProt P08173) | receptor activation, agonist |  | concentration not given, 16 h |  | Emax | 120 ± 4%
CC(=O)NCCOc1ccccc1NC(=O)C(C(F)(F)F)C(F)(F)F | Rhomboid protease AarA (Providencia stuartii, UniProt P46116) | enzyme activity, inhibitor, fluorescence |  |  |  | IC50 | 27000 nM
Cc1c(C)n(Cc2ccc(-c3ccccc3C(=O)O)cc2)c2ccc(C(=O)N[C@@H](C)c3ccc([N+](=O)[O-])cc3)cc12 | PPARG | reporter gene, agonist, luciferase | COS-1 |  |  | Emax | 0%

Repeated from above:
SMILES | target or system | assay | test system | setting | scale | endpoint | result
C=CCn1c(=O)c2ccccc2n2c(SCC(=O)NCc3ccc(NC(C)=O)cc3)nnc12 | Muscarinic acetylcholine receptor M4 (CHRM4, Homo sapiens, UniProt P08173) | receptor activation, agonist |  | concentration not given, 16 h |  | Emax | 120 ± 4%
